Measurements from different studies.
Each numbered part is a random draw from the data of one study; scales do not carry over between parts. Several values in a cell are separate wells, animals, samples, runs or records.

Block 1
Target: Sal-like protein 4, full length isoform B (SALL4, Homo sapiens, UniProt Q9UJQ4-2, residues 1-616)
Method: universal PBM
Molecule type: double-stranded DNA, one strand shown
Matrix: in vitro
Tested at: not given
Setting: 8-mer, flanks averaged, mean of replicates
Direction: higher = stronger binding
Endpoint: E-score
CTAGGTCA: -0.00081
ACAGCTGA: -0.184
GTCTGGCA: -0.184
CCAAACGA: -0.0563
CTCGTCAG: -0.14
CAGGCACG: -0.266
CTCAAGAG: -0.153
ACCGCGAG: -0.259

Block 2
Target: Fragile X messenger ribonucleoprotein 1, C-terminal low-complexity region (Fmr1, Mus musculus, UniProt P35922)
Method: RNA Bind-n-Seq
Molecule type: RNA
Matrix: in vitro
Tested at: 200 nM
Setting: whole 134-nt RNA, ends assumed
With: 150 mM LiCl
Reference: input library
Direction: higher = stronger binding
Endpoint: log2 enrichment
All molecules: 7-deaza-guanosine replaces G
Constant ends, left off below: GGGAGUUCUACAGUCCGACGAUC … UGGAAUUCUCGGGUGUCAAGG
AAGUCCUGUGCUACACAUCGUAUGUACCGAAUCGGCCCCCGGCCCCCGGCCCCCGGGAAAGUAUUAUGUUACGCCGUUCGGAUCUGCACU: 0.0244
UGGCCCUGGUGGCAUGCAGGGAGGAAGAGGUGGCCUCAUGGAUCGUGGUGGUCCCGGUGGAAUGUUCAGAGGUGGCCGUGGUGGAGACAG: 0.368
UGCCAUAAGCGGCACCGGCACUGCCCGGUUGUCGUGUCCGAGGCCACCAUCGUGGGCGUCCGCAAGACCGGGCAGAUCUGGCCCAACGAU: -1.92
UCAAGUCCUGUGCUACACAUCGUAUGUACCGAAUCGGGAAAGGAAAGGGGAAAGGAAAGUAUUAUGUUACGCCGUUCGGAUCUGCACUUC: -1.32
CAAGUCCUGUGCUACACAUCGUAUGUACCGAAUCGGGGAAAGGGAAAGGGAAAGGGAAAGUAUUAUGUUACGCCGUUCGGAUCUGCACUU: -0.807
UCCUGUGCUACACAUCGUAUGUACCGAAUCGGGGUUUUUUUGGGGUGGGGAAAAAGGGGAAAGUAUUAUGUUACGCCGUUCGGAUCUGCA: -1.63
UGGGCGGUGGAUUUUGUUUAUUUUUUUAGCUCAUUUCCAGGGGUGGGAAUUUUUUUUUAAUAUGUGUCAUGAAUAAAGUUGUUUUUGAAA: 1.09
CUGUGCUACACAUCGUAUGUACCGAAUCAAAUUUUUUUAAAUUUUUUUAAAUUUUUUUAAAAAAGUAUUAUGUUACGCCGUUCGGAUCUG: -2.68

Block 3
Target: Replicase polyprotein 1ab, main protease (rep, Severe acute respiratory syndrome coronavirus 2, UniProt P0DTD1)
Observed: enzyme activity
Action: inhibitor
Tested at: 20 µM
Setting: hit confirmation, no DTT
Endpoint: inhibition
O=C(O)c1ccc(N2C(=O)/C(=C\c3ccc(-c4ccc([N+](=O)[O-])cc4)o3)C=C2c2ccccc2)cc1: 51.1%
O=C(O)[C@@H](S)[C@@H](S)C(=O)O: 98.4% and 110%
CN(C)CCNc1nc2cc(O)ccc2c2c1C(=O)c1ccccc1-2: 97.5%

Block 4
Cell line: HEK-293T
Observed: pseudovirus infection
Method: FDA-approved drug library screen
Organism: VSV pseudotyped with SARS-CoV-2 spike
Tested at: 10 µM
Time: 16 h
Reference: vehicle-treated
Endpoint: GFP-positive cells
COc1cccc2c1C(=O)c1c(O)c3c(c(O)c1C2=O)C[C@@](O)(C(=O)CO)C[C@@H]3O[C@H]1C[C@H](N)[C@@H](O)[C@H](C)O1: 94.4%
CCCNC(C)C(=O)Nc1ccccc1C (stereo not shown): 93.1%
CCOC(=O)C1=C(C)NC(C)=C(C(=O)OC)C1c1cccc(Cl)c1Cl (stereo not shown): 36.2%

Block 5
Target: Replicase polyprotein 1ab, nsp13 helicase (rep, Severe acute respiratory syndrome coronavirus 2, UniProt P0DTD1)
Action: inhibitor
Tested at: 20 µM
Endpoint: inhibition
c1coc(CNc2ncnc3[nH]cnc23)c1: 6.24%
COc1cc2c(cc1-c1c(C)noc1C)ncc1[nH]c(=O)n([C@H](C)c3ccccn3)c12: 0.69%
O=C(/C=C/c1ccccc1)NC(NC(=S)Nc1ccc(Cl)cc1)C(Cl)(Cl)Cl (stereo not shown): 4.4%
Cc1ccc(S(=O)(=O)N2CCC[C@H]2c2ccc(F)cc2)cc1: 1.98%
CN1CCN(C(=O)c2nc3ccc(Cl)cc3[nH]2)CC1: 6.94%
O=C(O)c1ccccc1Nc1ccc(CCc2ccc(Cl)c(Cl)c2)cc1: 7.76%
CCOc1ccc(/N=C(\C)Nc2ccc(OCC)cc2)cc1: 5.67%
CC(=O)[C@@]1(O)CC[C@H]2[C@@H]3CCC4=CC(=O)CC[C@]4(C)[C@H]3CC[C@@]21C: 3.12%
O=C(OCC(O)CO)c1ccccc1Nc1ccnc2cc(Cl)ccc12 (stereo not shown): 2.29%
CCN1CCC[C@H]1CNC(=O)c1c(OC)ccc(Br)c1OC: 1.81%
CC(Cc1cccc(C(F)(F)F)c1)NCCOC(=O)c1ccccc1 (stereo not shown): 2%
CC(C)(C)C(=O)Oc1ccc(S(=O)(=O)Nc2ccccc2C(=O)NCC(=O)O)cc1: -7.19%
CC(C)C[C@H](NC(=O)CNC(=O)[C@H](Cc1ccc(O)cc1)NC(=O)[C@H](CO)NC(=O)[C@H](Cc1c[nH]c2ccccc12)NC(=O)[C@H](Cc1cnc[nH]1)NC(=O)[C@@H]1CCC(=O)N1)C(=O)N[C@@H](CCCNC(=N)N)C(=O)N1CCC[C@H]1C(=O)NCC(N)=O: 6.57%
OCc1ccccc1O: 3.4%
CN(C)C(=N)NC(=N)N: 0.61%
NS(=O)(=O)c1ccc(NC(=O)Nc2ccc(F)cc2)cc1: 3.69%
CCCCOc1ccc(CC(=O)NO)cc1: 3.13%
CCn1cc(-c2ccnc3[nH]c(-c4cccc(CN(C)C)c4)cc23)c(-c2ccc(NC(=O)N(C)C)cc2)n1: 7.57%
CCC(C)(Oc1ccc(C2(c3ccc(OC(C)(CC)C(=O)O)cc3)CCCCC2)cc1)C(=O)O (stereo not shown): -5.41%
CCCN1C[C@H](CSC)C[C@@H]2c3cccc4[nH]cc(c34)C[C@H]21: -3.53%
CC1(N)CCN(c2cnc(-c3cccc(Cl)c3Cl)c(N)n2)CC1: 9.32%
CC[N+](CC)(CCCNC1=CC(=O)C(NCCC[N+](CC)(CC)Cc2ccccc2)=CC1=O)Cc1ccccc1: 12.5%
O=C(O)c1ccccn1: -3.57%
CCCCN1CCC(CNC(=O)c2c3n(c4ccccc24)CCCO3)CC1: 7.02%
Nc1ccncc1N: 9.31%

Block 6
Target: PABPC1L2, full length, GST fusion (mouse, UniProt A0ABA7IW68)
Method: RNAcompete
Molecule type: RNA
Matrix: in vitro
Tested at: 20 nM
Setting: 7-mer, probes averaged, single round
Reference: mean of 7-mers
Direction: higher = stronger binding
Endpoint: 7-mer Z-score
Construct (chain): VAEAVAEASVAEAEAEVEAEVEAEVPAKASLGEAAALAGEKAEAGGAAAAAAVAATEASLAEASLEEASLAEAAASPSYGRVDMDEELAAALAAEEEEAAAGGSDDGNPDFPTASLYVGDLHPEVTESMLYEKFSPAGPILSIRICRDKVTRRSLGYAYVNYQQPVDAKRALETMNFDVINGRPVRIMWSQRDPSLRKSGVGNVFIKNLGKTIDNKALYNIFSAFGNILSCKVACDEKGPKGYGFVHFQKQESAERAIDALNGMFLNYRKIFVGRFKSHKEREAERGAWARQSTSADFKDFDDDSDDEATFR
ACGUAAC: -0.186
AGAUGGU: -0.211
CUAUAAG: -0.115
AAUUUGC: -0.0047
CCGGUAU: -0.195
GUUAGAA: 0.311
AUAAAGC: 1.74
UUAUAAA: 1.23
